Measured values of several laboratories.
Every numbered part comes from another study and shows a few of its results, in no order. Positions count from the first letter of the parent shown.

Set 1
Target: Phosphate system positive regulatory protein PHO4, full length, GST-tagged (PHO4, Saccharomyces cerevisiae, UniProt P07270, residues 1-312)
Method: competition protein-binding microarray
Molecule type: double-stranded DNA, one strand shown
Sample: in vitro
Concentration: 2 µM
Setting: whole 60-bp probe, lowest competitor level
With: Cbf1 competitor, 0.05 µM
Reading: higher = stronger binding
All sequences stand within: … GTCTTGATTCGCTTGACGCTGCTG
Residues (chain): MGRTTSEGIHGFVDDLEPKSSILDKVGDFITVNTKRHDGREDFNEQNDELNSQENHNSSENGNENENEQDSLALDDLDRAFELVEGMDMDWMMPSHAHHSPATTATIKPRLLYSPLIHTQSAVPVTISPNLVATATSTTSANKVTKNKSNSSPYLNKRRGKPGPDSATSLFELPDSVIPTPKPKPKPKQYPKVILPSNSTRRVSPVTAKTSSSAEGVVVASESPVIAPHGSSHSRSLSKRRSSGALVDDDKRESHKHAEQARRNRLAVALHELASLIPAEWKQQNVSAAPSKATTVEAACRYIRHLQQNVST
Strand | fluorescence intensity [a.u.]
CTTTCCCGATCTTGGCAGGTGGGTGTAGCACATTTG | 8070
CGTCCTAGTGATTGTTTCGTGGGTGCCATGAGGAAG | 8070
AAATTACTAAGTTGTCACCTGACTTACCCCGTATGA | 3590
CTTTGTCTTGAAATGCGCGTGTCGGTAAAATATTGT | 10100
TTCAATGCCAACAATAGCGTGCTTTCTTGTGAGTTT | 7750
TGGAGAAATCTTGCATCCGTGCCGACCACGGCATTT | 6010
ATGAAGGTTGGCGACCACGTGGTCGTTGATGCTGCC | 19100
AAAGCGGTAATTTGAAATGTGGGTGCAGATATCTAT | 5640
TGCGCAACAACTTGGACAGTGGGTGTATGTCTAGAA | 4610
GTCTTGTCTCATTGTTTTGTGGGTGTCCCCACTTCA | 5150
AAAACATCAAAACTACACGTTTGGGTGGTACGGAGG | 9270
ATTTATTTACCCCATCACGTGCAAAAATTGAACCTG | 15300
ACTGCTGTCTATAACGGCGTGACGGGTTTAGCATAA | 6180
TGCTGCGGACAGTTCTCCGTGACGGGATCGCGCAAT | 3500
TCGGTGATGGTATTGCTCGTGTTTTTGGTTTGAACA | 8370
AACCTGGAAGTGGGCCACATGTTGTAAAAGGAAGCT | 10100
AAATTACTAAGTTGGCTTGTGGGTGACGCCGTATGA | 3910
CGTCCTAGTGATTTGCACGTGTTTTCCATGAGGAAG | 16900

Set 2
Target: UBE2J1 UBC core domain (UniProt Q9Y385)
Method: yeast two-hybrid
Sample: yeast
Setting: mostly zero background
Baseline: not given
Reading: higher = stronger interaction
B1: PEX2 RING domain (UniProt P28328); chain DNTLATSGKECALCGEWPTMPHTIGCEHIFCYFCAKSSFLFDVYFTCPKCGTEVHSLQPLK
B2: RNF4 RING domain (UniProt P78317); chain TGLRPSGTVSCPICMDGYSEIVQNGRLIVSTECGHVFCSQCLRDSLKNANTCPTCRKKINHKRYHP
B3: TRIM3 RING domain (UniProt O75382); chain VQPMDKQFLVCSICLDRYQCPKVLPCLHTFCERCLQNYIPAQSLTLSCPVCRQTSILPEQGV
B4: UBE4A RING domain (UniProt Q14139); chain LQQQEEETYADACDEFLDPIMSTLMCDPVVLPSSRVTVDRSTIARHLLSDQTDPFNRSPLTMDQIRPNTELKEKIQRWLAERKQQKEQLE
B5: RFPL2 RING domain (UniProt O75678); chain MAALFQEASSCPVCSDYLEKPMSLECGCAVCLKCINSLQKEPHGEDLLCCCSSMVSRKNKIRR
B6: RNF149 RING domain (UniProt Q8NC42); chain EKGIDVDAENCAVCIENFKVKDIIRILPCKHIFHRICIDPWLLDHRTCPMCKLDVIKALGYW
B7: RNF32 RING domain (UniProt Q9H0A6); chain SLLQGDSVQPCPICKEEFELRPQVLLSCSHVFHKACLQAFEKFTNKKTCPLCRKNQYQTRVIH
B8: TRIM15 RING domain (UniProt Q9C019); chain SLKVVHELPACTLCAGPLEDAVTIPCGHTFCRLCLPALSQMGAQSSGKILLCPLCQEEEQAETPMA
B9: ANKIB1 RING domain (UniProt Q9P2G1); chain LSPGDLDTSLCDICMCSISVFEDPVDMPCGHDFCRGCWESFLNLKIQEGEAHNIFCPAYDCFQLVPVDIIE
B10: NSMCE1 RING domain (UniProt Q8WV22); chain RETYPDAVKICNICHSLLIQGQSCETCGIRMHLPCVAKYFQSNAEPRCPHCNDYWPHEIPKV
B11: TRIM10 RING domain (UniProt Q9UDY6); chain SVTSLADEVNCPICQGTLREPVTIDCGHNFCRACLTRYCEIPGPDLEESPTCPLCKEPFRPGSFRP
B12: RNF150 RING domain (UniProt Q9ULK6); chain DKETESDFDNCAVCIEGYKPNDVVRILPCRHLFHKSCVDPWLLDHRTCPMCKMNILKALGIP
Construct (chain): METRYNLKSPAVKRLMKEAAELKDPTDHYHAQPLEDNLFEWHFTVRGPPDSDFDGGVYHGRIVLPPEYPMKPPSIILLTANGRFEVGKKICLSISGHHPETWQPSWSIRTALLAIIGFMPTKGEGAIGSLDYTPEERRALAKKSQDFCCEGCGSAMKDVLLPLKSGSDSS
Sequence | lacZ reporter activity
B1 (PEX2 RING domain) | 0
B2 (RNF4 RING domain) | 0
B3 (TRIM3 RING domain) | 0
B4 (UBE4A RING domain) | 0
B5 (RFPL2 RING domain) | 0
B6 (RNF149 RING domain) | 0
B7 (RNF32 RING domain) | 0
B8 (TRIM15 RING domain) | 0
B9 (ANKIB1 RING domain) | 0
LKQVSIRENCCSLCCDEVADTQLKPCGHSDLCMDCALQLETCPLCRKEIVSRIRQI (RSPRY1 RING domain (UniProt Q96DX4)) | 0
ISNDSETLEECMVCSDMKRDTLFGPCGHIATCSLCSPRVKKCLICKEQVQSRTKIE (MIB1 RING domain (UniProt Q86YT6)) | 0
B10 (NSMCE1 RING domain) | 0
B11 (TRIM10 RING domain) | 0
B12 (RNF150 RING domain) | 0

Set 3
Target: Interferon regulatory factor 5, full length, phosphomimetic (IRF5, Homo sapiens, UniProt Q13568-2, residues 1-514, S451D/S453D/S456D/S462D)
Method: protein-binding microarray
Molecule type: double-stranded DNA, one strand shown
Sample: in vitro
Concentration: 940 nM top
Setting: 60-bp whole probe
With: salmon DNA 0.4 mg/ml
Baseline: random background probes
Reading: higher = stronger binding
All sequences stand within: GCCTAGCAC … GTCTTGATTCGCTTGACGCTGCTG
Strand | fitted relative affinity [z-score]
GACTGTATCCTTATCCTGACGTGCTAG | 0.368
TCATATATATATTGTTAGACTGTGCTA | 0.147
TCACATTTCTGTTTTTGACTGTGCTAG | 0.99
GACTGTATCGGACTGGGGACGTGCTAG | 0.713
TCTGATTTCTCAAACAGCTCGTGCTAG | 0.494
GACGGTATCCTTATCCTGTCGTGCTAG | 0.704
TTAGATTTCGGACTGGATTAGTGCTAG | 0.509
TTAGGACTGGGTTTCGGTTTGTGCTAG | 6.44
TTAGGTTTCTTACTGCTTTAGTGCTAG | 1.94
TCACTTTGCCTTTTGCTACTGTGCTAG | 0.924
GTCGATATCAGTTTCGAGACGTGCTAG | 6.21
TTAGGTATCTGGTATCGGTTAGTGCTA | 5.31
TTAGGTCTCGGTATCGGGTAGTGCTAG | 5.53
GACGGCATCGGTCTCGGGACGTGCTAG | 0.285
GACGGTTTCAGACTGGGGACGTGCTAG | 1.93
TTAGAACTGGGGTGTCGATTAGTGCTA | 0.277
TTAGGTCTCGGACTGGGTCAGTGCTAG | 0.886

Set 4
Target: CCNF, cyclin fold, Cln2 fusion (human)
Method: yeast growth competition, sequencing
Sample: yeast
Setting: strong parent motif
Baseline: not given
Reading: higher = stronger binding
Parent: SCAPER docking peptide (human); SNARRSLNFGGST
Variant | normalised enrichment score
F9Y | 2.36
S1N | 7.69
F9H | 0.635
R4W | 2.79
G10R | 4.98
A3D | 0.22
N8C | 6.82
G11F | 7.83
N8I | 7.42
R5F | 1.39
S12Y | 7.87
N8L | 5.93
F9A | 0.52

Excerpt of the above (set 3):
Strand | fitted relative affinity [z-score]
GACTGTATCGGACTGGGGACGTGCTAG | 0.713
TTAGGTTTCTTACTGCTTTAGTGCTAG | 1.94
TTAGGTCTCGGTATCGGGTAGTGCTAG | 5.53
TTAGGACTGGGTTTCGGTTTGTGCTAG | 6.44
